{"data": "Results collected from several papers", "PRXC1A": "PRXC1A (Armoracia rusticana, UniProt P00433)", "note": "Protocols differ between the studies behind these lines. ± marks the error that the study gave.", "chain of UniProt P00433 (whole entry, looked up)": "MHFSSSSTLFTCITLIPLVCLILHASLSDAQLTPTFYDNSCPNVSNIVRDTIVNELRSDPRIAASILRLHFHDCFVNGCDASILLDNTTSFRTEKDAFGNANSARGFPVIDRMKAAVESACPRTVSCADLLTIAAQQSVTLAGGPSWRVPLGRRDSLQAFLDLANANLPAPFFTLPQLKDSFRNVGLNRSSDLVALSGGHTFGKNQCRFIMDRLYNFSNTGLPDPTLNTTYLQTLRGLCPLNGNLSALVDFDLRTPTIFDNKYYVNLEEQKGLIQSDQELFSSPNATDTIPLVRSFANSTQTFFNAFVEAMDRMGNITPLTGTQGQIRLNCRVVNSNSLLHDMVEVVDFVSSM", "chain of UniProt Q00987 (whole entry, looked up)": "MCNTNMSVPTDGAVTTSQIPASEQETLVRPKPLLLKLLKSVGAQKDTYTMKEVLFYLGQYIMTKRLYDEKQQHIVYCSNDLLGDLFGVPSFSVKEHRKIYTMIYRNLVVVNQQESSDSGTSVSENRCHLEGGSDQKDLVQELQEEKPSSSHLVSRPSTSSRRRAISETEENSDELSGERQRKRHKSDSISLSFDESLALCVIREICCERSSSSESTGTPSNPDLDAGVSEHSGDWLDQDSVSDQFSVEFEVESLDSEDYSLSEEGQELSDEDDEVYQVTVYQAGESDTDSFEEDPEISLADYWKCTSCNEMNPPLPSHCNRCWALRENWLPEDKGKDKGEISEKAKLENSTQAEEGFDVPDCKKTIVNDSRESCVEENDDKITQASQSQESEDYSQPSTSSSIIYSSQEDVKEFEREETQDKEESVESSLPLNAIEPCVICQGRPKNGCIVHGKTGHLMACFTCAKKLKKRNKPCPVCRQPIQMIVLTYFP", "chain of UniProt Q7L0J3 (whole entry, looked up)": "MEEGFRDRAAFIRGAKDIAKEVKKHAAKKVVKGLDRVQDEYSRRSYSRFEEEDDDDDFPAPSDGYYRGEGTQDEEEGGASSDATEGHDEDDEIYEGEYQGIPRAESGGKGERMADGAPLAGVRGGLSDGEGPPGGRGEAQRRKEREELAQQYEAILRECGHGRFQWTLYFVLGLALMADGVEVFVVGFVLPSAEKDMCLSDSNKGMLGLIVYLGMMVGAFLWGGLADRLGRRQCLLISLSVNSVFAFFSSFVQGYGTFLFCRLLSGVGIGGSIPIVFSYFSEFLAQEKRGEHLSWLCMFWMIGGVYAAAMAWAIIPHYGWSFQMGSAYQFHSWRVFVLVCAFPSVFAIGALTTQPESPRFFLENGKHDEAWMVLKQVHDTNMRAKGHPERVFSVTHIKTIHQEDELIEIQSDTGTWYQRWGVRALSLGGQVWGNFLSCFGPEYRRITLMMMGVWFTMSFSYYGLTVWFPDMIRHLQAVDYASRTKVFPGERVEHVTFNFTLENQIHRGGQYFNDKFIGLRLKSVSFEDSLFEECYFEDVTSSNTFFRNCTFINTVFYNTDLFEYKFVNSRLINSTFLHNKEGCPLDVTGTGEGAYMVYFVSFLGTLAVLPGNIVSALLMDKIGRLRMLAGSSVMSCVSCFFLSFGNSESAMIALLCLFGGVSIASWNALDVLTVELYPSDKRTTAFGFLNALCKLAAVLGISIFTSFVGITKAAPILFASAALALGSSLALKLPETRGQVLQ", "chain of UniProt P16050 (whole entry, looked up)": "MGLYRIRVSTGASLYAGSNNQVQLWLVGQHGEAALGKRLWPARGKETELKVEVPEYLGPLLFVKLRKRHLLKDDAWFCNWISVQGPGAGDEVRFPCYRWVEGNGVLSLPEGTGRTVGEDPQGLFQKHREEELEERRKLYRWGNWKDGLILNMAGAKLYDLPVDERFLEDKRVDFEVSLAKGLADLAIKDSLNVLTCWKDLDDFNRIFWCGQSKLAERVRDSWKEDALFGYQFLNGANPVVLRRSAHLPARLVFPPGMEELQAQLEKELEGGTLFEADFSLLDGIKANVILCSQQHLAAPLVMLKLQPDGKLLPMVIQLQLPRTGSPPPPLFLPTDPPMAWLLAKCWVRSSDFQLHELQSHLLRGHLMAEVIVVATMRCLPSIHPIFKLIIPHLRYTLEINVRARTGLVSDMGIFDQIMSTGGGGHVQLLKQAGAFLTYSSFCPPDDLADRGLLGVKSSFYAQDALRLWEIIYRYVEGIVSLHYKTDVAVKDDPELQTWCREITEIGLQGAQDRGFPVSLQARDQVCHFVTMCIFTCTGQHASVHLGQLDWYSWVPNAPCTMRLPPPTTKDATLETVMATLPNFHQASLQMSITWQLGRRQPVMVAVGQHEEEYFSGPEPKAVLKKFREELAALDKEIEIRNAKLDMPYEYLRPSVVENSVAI", "chain of UniProt P16442 (whole entry, unmodified, looked up)": "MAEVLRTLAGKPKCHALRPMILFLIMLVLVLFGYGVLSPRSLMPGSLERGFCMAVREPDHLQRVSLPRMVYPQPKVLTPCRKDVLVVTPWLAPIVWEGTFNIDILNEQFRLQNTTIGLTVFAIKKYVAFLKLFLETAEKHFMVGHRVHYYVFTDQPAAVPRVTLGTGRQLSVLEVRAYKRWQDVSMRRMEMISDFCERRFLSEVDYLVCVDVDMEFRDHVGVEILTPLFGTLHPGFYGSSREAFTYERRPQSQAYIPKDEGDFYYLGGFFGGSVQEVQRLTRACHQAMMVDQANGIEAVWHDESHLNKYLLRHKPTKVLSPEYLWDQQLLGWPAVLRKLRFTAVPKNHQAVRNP"}
{"Structure (SMILES)": "CN1CCN(CC(=O)N2N=C3/C(=C/c4ccccc4)CCCC3C2c2ccccc2)CC1 (mixture of isomers)", "target": "ALOX15 (Homo sapiens, UniProt P16050)", "test": "activator", "setting": "10 µM, added: arachidonic acid 50 µM", "how to read": "relative to: no activator", "measurement": "initial rate increase", "result": "71%"}
{"Structure (SMILES)": "CC(C)CNC(=O)[C@H](Cc1ccccc1)NC(=O)[C@H](Cc1c[nH]c2ccccc12)NC(=O)[C@H](CCCNC(=N)N)NC(=O)OCC(C)C", "target": "E3 ubiquitin-protein ligase Mdm2, with p53 (MDM2, Homo sapiens, UniProt Q00987)", "test": "MDM2-p53 binding, inhibitor, competitive ELISA", "setting": "concentration not given", "measurement": "activity", "result": "inactive"}
{"Structure (SMILES)": "CCCCCCCCO[C@@H]1O[C@H](CO)[C@H](O)[C@H](O[C@H]2O[C@H](CO)[C@H](O)[C@H](O)[C@H]2O)[C@H]1O[C@@H]1O[C@@H](C)[C@@H](O)[C@@H](O)[C@@H]1O", "target": "ABO (Homo sapiens, UniProt P16442, G235S/G268A/L266M/R176G)", "test": "methyl-TROSY NMR titration lineshape analysis", "setting": "apo enzyme", "measurement": "koff", "result": "2900 ± 100 s⁻¹"}
{"Structure (SMILES)": "CCc1nc2cc3ccccc3cc2cc1C(=O)N[C@@H](CCCCN)C(=O)N[C@@H](C/C=C\\C[C@H](NC(=O)[C@H](CCCCN)NC(=O)c1cc2cc3ccccc3cc2nc1CC)C(=O)N1CCC[C@H]1C(=O)NCCCN)C(=O)N1CCC[C@H]1C(=O)NCCCN", "target": "(CCUG)10 RNA", "test": "SPR", "measurement": "residence time", "result": "253 s"}
{"Structure (SMILES)": "O=C1C=CC2(c3coc4cc(O)ccc4c3=O)c3cc(-c4coc5cc(O)ccc5c4=O)ccc3OC2C1 (centres unmarked)", "target": "PRXC1A", "test": "oxidation, substrate", "measurement": "Km", "result": "694 ± 36 µM"}
{"Structure (SMILES)": "[3H]C([3H])([3H])c1cnccc1CN1C[C@@H](c2cc(F)c(F)c(F)c2)CC1=O", "target": "SV2A (Homo sapiens, UniProt Q7L0J3)", "test": "radioligand binding", "test system": "human Alzheimer disease, frontal cortex", "how to read": "relative to: P1 fraction over homogenate", "measurement": "specific binding ratio", "result": "~143 fold"}
{"Structure (SMILES)": "O=C1C[C@@H](c2ccc(O)c(-c3cc([C@@H]4CC(=O)c5c(O)cc(O)cc5O4)ccc3O)c2)Oc2cc(O)cc(O)c21", "target": "PRXC1A", "test": "oxidation, substrate", "measurement": "Vmax", "result": "1.79 ± 0.2 µmol/min/mg"}
{"Structure (SMILES)": "CC[C@H](C)[C@@H]1NC(=O)[C@H](Cc2cn(CCc3c(C)[nH]c4cc(Cl)cc(Cl)c34)nn2)NC(=O)[C@@H](CC(N)=O)NC(=O)[C@H](CCCNC(=N)N)NC(=O)[C@H](Cc2ccccc2)NC(=O)[C@@H](CC(C)C)NC(=O)[C@H](C)NC(=O)c2cc3cc(c2)C(=O)NC[C@@H](C(=O)N[C@@H](CCCCN)C(N)=O)NC(=O)[C@H](CCCNC(=N)N)NC(=O)[C@H](CCCNC(=N)N)NC(=O)[C@H](CCCNC(=N)N)NC(=O)[C@H](CCCNC(=N)N)NC(=O)[C@H](Cc2ccc4ccccc4c2)NC(=O)[C@H](Cc2ccccc2)NC(=O)[C@H](CCCCNC3=O)NC(=O)[C@H](CC(=O)O)NC1=O", "target": "IKBKG (Homo sapiens, UniProt Q9Y6K9)", "test": "fluorescence anisotropy", "setting": "concentration not given, added: FITC-labelled peptide 100 nM", "measurement": "binding", "result": "no binding"}
